{"data": "Published values of several laboratories", "note": "Numbered parts are unrelated; each lists some results of a single study. Substitutions count along the parent as printed."}
{"data": "Sample 1", "target": "ABI1, truncated, D143A, DHFR fusion (Arabidopsis thaliana)", "method": "DHFR PCA, deep sequencing", "medium": "yeast", "setting": "methotrexate growth selection, single substitutions", "with": "(+)-ABA 17 µM", "relative to": "wild-type fitted maximum", "reading": "higher = stronger binding", "parent": "PYL1, truncated, DHFR fusion (Arabidopsis thaliana); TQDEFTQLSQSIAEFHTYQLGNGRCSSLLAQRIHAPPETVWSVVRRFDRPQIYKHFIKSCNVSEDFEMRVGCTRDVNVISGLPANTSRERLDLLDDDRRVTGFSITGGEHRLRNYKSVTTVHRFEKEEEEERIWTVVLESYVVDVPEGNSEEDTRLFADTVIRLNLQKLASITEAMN"}
{"Change": "V161R", "relative binding score": "-3.58%"}
{"Change": "V100P", "relative binding score": "-18.6%"}
{"Change": "L112H", "relative binding score": "-12.2%"}
{"Change": "E89W", "relative binding score": "-4.83%"}
{"Change": "Y53D", "relative binding score": "1.37%"}
{"Change": "L20C", "relative binding score": "87.6%"}
{"Change": "T120H", "relative binding score": "3.08%"}
{"Change": "E147S", "relative binding score": "75.7%"}
{"data": "Sample 2", "target": "CCNE2, cyclin fold, Cln2 fusion (human)", "method": "yeast growth competition, sequencing", "medium": "yeast", "setting": "strong parent motif", "relative to": "not given", "reading": "higher = stronger binding", "parent": "BRCA2 docking peptide (human); PSIKRNLLNEFDR"}
{"Change": "L7H", "normalised enrichment score": -0.221}
{"Change": "N6T", "normalised enrichment score": 0.76}
{"Change": "L7Q", "normalised enrichment score": 0.172}
{"Change": "D12M", "normalised enrichment score": 2.55}
{"Change": "F11D", "normalised enrichment score": -0.089}
{"Change": "P1S", "normalised enrichment score": 1.42}
{"Change": "L8N", "normalised enrichment score": 1.31}
{"Change": "D12H", "normalised enrichment score": 0.903}
{"data": "Sample 3", "target": "Prothrombin, mature alpha-thrombin (F2, Homo sapiens, UniProt P00734)", "method": "aptamer microarray, sandwich", "form": "DNA with 2'F-ANA", "medium": "in vitro", "concentration": "200 nM", "setting": "whole 15-mer aptamer, many near background", "with": "Cy3 exosite-II aptamer, 400 nM", "reading": "higher = stronger binding", "sequence": "GGTTGGTGTGGTTGG"}
{"Modification": "2'F-ANA at 1 9 10 11 12 14", "mean fluorescence intensity [a.u.]": 47.3}
{"Modification": "2'F-ANA at 1 2 4 5 9 14", "mean fluorescence intensity [a.u.]": 43.1}
{"Modification": "2'F-ANA at 1 5 7 8 9 10 11 13 14 15", "mean fluorescence intensity [a.u.]": 64.1}
{"Modification": "2'F-ANA at 3 4 8 9 10 11", "mean fluorescence intensity [a.u.]": 278}
{"Modification": "2'F-ANA at 1 2 3 8 11 13", "mean fluorescence intensity [a.u.]": 215}
{"Modification": "2'F-ANA at 1 2 3 5 7 13", "mean fluorescence intensity [a.u.]": 49.3}
{"Modification": "2'F-ANA at 1 2 3 4 5 6 9 10 12 14 15", "mean fluorescence intensity [a.u.]": 58.3}
{"Modification": "2'F-ANA at 1 5 7 8 9 15", "mean fluorescence intensity [a.u.]": 72.2}
{"Modification": "2'F-ANA at 5 6 7 12 13 14", "mean fluorescence intensity [a.u.]": 68.7}
{"Modification": "2'F-ANA at 2 3 4 5 10 11 13 15", "mean fluorescence intensity [a.u.]": 50.2}
{"Modification": "2'F-ANA at 5 6 8 11 12 15", "mean fluorescence intensity [a.u.]": 127}
{"Modification": "2'F-ANA at 1 3 4 5 6 7 8 9 10 13 14 15", "mean fluorescence intensity [a.u.]": 46.4}
{"Modification": "2'F-ANA at 1 5 7 8 11 13 14", "mean fluorescence intensity [a.u.]": 43.5}
{"Modification": "2'F-ANA at 2 4 9 11 15", "mean fluorescence intensity [a.u.]": 245}
{"data": "Other studies, line by line"}
{"Substance": "PhoQ, residues 284 288 289 292 302 303 SLANKL", "target": "PhoP, residues 12 14 15 18 19 TPWLV (Escherichia coli, UniProt P23836)", "assay": "Sort-seq, refers to: YFP reporter", "test system": "E. coli", "setting": "PhoQ-PhoP variant library, with: 10 µM Mg2+", "how to read": "relative to: high Mg2+ state, higher = stronger signaling", "endpoint": "fold induction", "value": 6.51}
